Measured values gathered from unrelated publications.
Protocols differ between the studies behind these lines.
CSF1R: Macrophage colony-stimulating factor 1 receptor (CSF1R, Homo sapiens, UniProt P07333)
Chain of UniProt P07333 (whole entry, unmodified, looked up): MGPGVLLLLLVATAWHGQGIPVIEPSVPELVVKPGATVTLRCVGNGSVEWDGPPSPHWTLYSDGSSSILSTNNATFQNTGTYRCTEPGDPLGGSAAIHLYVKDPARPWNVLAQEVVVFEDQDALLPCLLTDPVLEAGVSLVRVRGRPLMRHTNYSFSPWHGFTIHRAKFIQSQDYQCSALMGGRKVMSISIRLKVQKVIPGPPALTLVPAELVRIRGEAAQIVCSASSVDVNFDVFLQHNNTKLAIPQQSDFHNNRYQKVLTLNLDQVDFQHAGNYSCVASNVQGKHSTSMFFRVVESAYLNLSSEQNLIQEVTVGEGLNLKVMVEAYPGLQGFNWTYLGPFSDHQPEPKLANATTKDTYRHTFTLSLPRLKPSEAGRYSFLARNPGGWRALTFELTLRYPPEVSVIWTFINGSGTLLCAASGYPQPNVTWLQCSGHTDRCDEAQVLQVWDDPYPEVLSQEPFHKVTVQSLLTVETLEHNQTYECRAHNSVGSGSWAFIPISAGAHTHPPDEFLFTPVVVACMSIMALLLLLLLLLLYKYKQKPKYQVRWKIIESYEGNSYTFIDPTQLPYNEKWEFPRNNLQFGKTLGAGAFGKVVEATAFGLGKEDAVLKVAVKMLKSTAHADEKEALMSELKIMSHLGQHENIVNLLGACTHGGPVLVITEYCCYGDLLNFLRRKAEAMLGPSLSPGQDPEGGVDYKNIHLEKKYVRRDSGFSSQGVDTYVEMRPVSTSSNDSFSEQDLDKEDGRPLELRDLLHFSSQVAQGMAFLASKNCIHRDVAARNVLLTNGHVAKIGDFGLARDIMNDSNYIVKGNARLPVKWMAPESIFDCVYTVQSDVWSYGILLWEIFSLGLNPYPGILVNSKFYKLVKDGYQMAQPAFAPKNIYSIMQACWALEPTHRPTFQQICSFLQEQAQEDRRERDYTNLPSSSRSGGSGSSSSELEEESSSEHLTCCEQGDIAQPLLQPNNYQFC

For `O=C(O)c1ccccc1/C=N/Nc1nc(-c2ccccc2Cl)cs1`, the inhibition was -5.81% (CSF1R; enzyme activity, inhibitor; 1 µM).
With `CS(C)(=O)=Nc1ccc(-c2ccc(-c3nc4cc(O[C@@H]5CO[C@H]6[C@@H]5OC[C@H]6O)[nH]c4cc3F)cc2)cc1` the inhibition was 2% (Macrophage colony-stimulating factor 1 receptor (CSF1R, Homo sapiens, UniProt P07333, Y969C); enzyme activity, inhibitor; 10 µM).
With `CC(C)[C@H]1NC(=O)C[C@H]2/C=C/CCSSC[C@@H](NC1=O)C(=O)N[C@H](Cc1cccc3ccccc13)C(=O)NCC(=O)O2` the inhibition was -51.6% (CSF1R; enzyme activity, inhibitor; 10 µM).
The selectivity ratio of `CCn1nc(Cl)c2c1-c1cnc(N)c(c1)O[C@H](C)c1cc(F)ccc1-c1nn(C)cc1C2` is reported as 162 fold (CSF1R; kinase activity, inhibitor; reference: IC50 CSF1R over IC50 ALK).
For `CCOC(=O)[C@@H]1Cc2c(cc([N+](=O)[O-])cc2[N+](=O)[O-])[C@H](O)[C@]12C(=O)Nc1ccc(Br)cc12`, the remaining binding was 92% (CSF1R; binding, competition with immobilised ligand; 0.1 µM).
`O=C1NC(=O)c2c1c1cc(F)c[n+]3c1c1c2c2cc(O)ccc2[n]1[Ru-4]312([N]=C=S)[S+]3CC[S+]1CC[S+]2CC3` (centres unmarked) has a remaining activity of 27% (CSF1R; enzyme activity; 100 nM, human enzyme, together with: 10 µM ATP; reference: untreated).
`C[C@H](NCc1ccc(-c2ccc(C(F)(F)F)cc2)cc1)C(N)=O` gave an inhibition of 1% (CSF1R; cell-free assay, competition with immobilised ligand; 1 µM).
For `Nc1ccc(/C=C/C(=O)N2CCc3c(oc4c(-c5ccc(F)cc5)cc(-c5ccc(C(=O)N6CCC(F)(F)CC6)cn5)cc34)C2)cn1`, the remaining binding was 100% (CSF1R; binding, competition with immobilised ligand; 1 µM).

For quick reference, copied from above:
`C[C@H](NCc1ccc(-c2ccc(C(F)(F)F)cc2)cc1)C(N)=O` gave an inhibition of 1% (CSF1R; cell-free assay, competition with immobilised ligand; 1 µM).
